# Published values gathered from unrelated publications.
# Lines come from different studies, so protocols differ. ± marks the error that the study gave.
# Chain of UniProt Q12769 (whole entry, looked up): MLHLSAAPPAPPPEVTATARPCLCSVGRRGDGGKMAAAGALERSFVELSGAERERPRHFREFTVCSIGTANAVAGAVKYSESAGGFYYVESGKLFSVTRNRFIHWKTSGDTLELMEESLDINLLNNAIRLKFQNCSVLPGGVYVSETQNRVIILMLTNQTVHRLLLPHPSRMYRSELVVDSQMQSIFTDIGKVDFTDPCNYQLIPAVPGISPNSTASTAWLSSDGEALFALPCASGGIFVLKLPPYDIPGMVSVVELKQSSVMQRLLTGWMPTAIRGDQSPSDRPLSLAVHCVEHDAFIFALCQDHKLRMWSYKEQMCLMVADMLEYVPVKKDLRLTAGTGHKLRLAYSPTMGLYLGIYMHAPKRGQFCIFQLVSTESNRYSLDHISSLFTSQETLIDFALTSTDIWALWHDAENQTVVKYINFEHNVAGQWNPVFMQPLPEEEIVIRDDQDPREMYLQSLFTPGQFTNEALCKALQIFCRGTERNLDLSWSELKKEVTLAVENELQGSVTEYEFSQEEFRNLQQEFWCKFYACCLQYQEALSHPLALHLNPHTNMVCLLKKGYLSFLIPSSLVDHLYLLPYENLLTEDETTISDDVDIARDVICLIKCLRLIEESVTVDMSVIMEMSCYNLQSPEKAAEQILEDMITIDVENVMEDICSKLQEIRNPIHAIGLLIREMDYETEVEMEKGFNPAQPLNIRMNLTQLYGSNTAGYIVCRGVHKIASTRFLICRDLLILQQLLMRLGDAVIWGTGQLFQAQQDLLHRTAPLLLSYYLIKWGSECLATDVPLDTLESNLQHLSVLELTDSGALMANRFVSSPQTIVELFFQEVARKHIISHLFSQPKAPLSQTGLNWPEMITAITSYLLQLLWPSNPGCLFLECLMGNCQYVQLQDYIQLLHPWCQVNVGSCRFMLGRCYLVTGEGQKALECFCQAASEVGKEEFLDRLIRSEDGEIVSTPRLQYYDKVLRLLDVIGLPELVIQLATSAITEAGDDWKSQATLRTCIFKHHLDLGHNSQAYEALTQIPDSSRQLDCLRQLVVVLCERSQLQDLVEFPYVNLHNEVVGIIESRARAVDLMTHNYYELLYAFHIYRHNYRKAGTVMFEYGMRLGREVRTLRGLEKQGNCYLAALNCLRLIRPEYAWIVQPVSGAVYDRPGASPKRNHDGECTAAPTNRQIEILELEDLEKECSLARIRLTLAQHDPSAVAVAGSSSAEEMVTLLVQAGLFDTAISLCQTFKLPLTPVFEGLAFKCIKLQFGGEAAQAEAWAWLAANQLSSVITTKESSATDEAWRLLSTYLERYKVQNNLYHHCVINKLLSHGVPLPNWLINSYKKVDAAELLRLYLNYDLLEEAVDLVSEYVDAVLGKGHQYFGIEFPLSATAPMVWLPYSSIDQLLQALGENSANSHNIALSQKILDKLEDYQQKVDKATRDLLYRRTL
# Chain of UniProt P06276 (whole entry, looked up): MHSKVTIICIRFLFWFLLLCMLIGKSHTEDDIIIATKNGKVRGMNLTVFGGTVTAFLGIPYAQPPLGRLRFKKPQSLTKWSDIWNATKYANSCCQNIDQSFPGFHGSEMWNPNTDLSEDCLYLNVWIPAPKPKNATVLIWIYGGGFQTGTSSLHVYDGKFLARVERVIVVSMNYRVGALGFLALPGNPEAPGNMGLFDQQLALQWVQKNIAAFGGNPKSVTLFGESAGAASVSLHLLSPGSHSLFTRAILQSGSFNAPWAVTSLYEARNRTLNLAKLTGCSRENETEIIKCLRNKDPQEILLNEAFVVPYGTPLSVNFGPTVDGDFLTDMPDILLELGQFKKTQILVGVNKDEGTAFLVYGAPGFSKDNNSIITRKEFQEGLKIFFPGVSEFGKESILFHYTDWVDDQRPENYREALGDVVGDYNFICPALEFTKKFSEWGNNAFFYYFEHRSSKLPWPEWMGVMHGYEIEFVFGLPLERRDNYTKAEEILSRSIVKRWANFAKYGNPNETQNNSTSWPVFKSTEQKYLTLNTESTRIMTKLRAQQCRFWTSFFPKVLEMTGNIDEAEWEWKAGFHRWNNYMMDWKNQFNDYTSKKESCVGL
Structure (SMILES),tested on,test,test system,setting,scale,quantity,result
CNC(=O)c1cc(Oc2ccc(NC(=O)Nc3cc(C(C)(C)C)nn3-c3ccc4ncccc4c3)c(F)c2)ccn1,,"left ventricular dysfunction, NCI CTC v3.0",human patients,"oral, 150 mg twice daily, tablet, dose at onset",,related SAE,3%
COc1ccnc(C(=O)N[C@H]2COC(=O)[C@H](Cc3ccccc3)[C@@H](OC(=O)C(C)C)[C@H](C)OC2=O)c1OCOC(=O)C(C)C,,,field soil,"geometric mean normalised, 5 sites",,DT50,9.83 days
CC[C@H](C)[C@H](NC(=O)[C@H](Cc1ccc(O)cc1)NC(=O)[C@@H]1CCCN1C(=O)[C@H](CCCNC(=N)N)NC(=O)[C@@H](N)CCCNC(=N)NC(=O)NCCOCCOCC[n+]1c(C)cc(/C=C/C=C/c2ccc(N(C)C)cc2)cc1C)C(=O)N[C@@H](CC(C)C)C(=O)O,,,PBS,pH 7.4,reference: cresyl violet perchlorate,fluorescence quantum yield,10%
Cc1cc(C(=O)NC(C)(C)COc2cccc3c2C(N)=NS(=O)(=O)N3)cc(C)n1,Escherichia coli,"Ames test, initial",WP2 uvrA,"1.50 µg/plate, together with: rat liver S9",reference: solvent control,revertant ratio,0.8
N[C@@H](Cc1ccc(O)c(O)c1)C(=O)O,,,"human, plasma","oral, dose not given, carbidopa/levodopa every 4 h, together with: opicapone",reference: after over before opicapone,fluctuation index ratio,0.55
Clc1cc(Cl)c(-c2c(Cl)cc(Cl)cc2Cl)c(Cl)c1,,,fresh water,"20 °C, SSP sampler, 100 µm",,log K(PDMS-water),6.58 ± 0.02
Clc1ccc(Cl)c(-c2cc(Cl)ccc2Cl)c1,,,"Sprague Dawley rat, spleen","intraperitoneal, 10 mg/kg",,relative organ weight,0.0029 g/g body weight
COc1c(OCCCN2CCOCC2)ccc2c1N=C(NC(=O)c1cnc(N)nc1)N1CCN=C21,,refers to: Vomiting,patients with advanced malignancies,"intravenous, dose not given, any grade, all cohorts, together with: gemcitabine",,patients with adverse event,50%
COc1cc2c(cc1C(F)(F)F)N(C(=O)Nc1cc(F)cc(-c3cccnc3)c1)CC2,Plasmodium falciparum,,Dd2,,,IC50,7.94 µM
Cc1cc(C)c(CNC(=O)c2cc(Cl)c3c(c2C)O[C@@](C)([C@H]2CC[C@H](N(C)C)CC2)O3)c(=O)[nH]1,,,relapsed/refractory NHL patients,"dose not given, trial, safety set, all TEAEs grade 5",,incidence of blood LDH increased,0%
Clc1ccc(Cl)c(-c2cc(Cl)ccc2Cl)c1,,,fresh water,"20 °C, S30-1 sampler, 30 µm",,log K(PDMS-water),5.48 ± 0.07
COc1cc2c(cc1OC)CN(CCc1ccc(NC(=O)c3cccc4c(=O)c5cccc(OC)c5[nH]c34)cc1)CC2,,,"CD-1 mouse, male, lung","intraperitoneal, 30 mg/kg",,elimination rate constant,7.85e-06 s⁻¹
CC[C@H](C)[C@H](NC(=O)[C@H](Cc1ccccc1)NC(=O)[C@H](CCC(=O)O)NC(=O)[C@H](CCCNC(=N)N)NC(=O)[C@H](C)NC(=O)[C@H](C)NC(=O)[C@H](CCC(N)=O)NC(=O)[C@H](CCC(=O)O)NC(=O)[C@H](CCC(=O)O)NC(=O)[C@H](CC(C)C)NC(=O)[C@H](Cc1ccc(O)cc1)NC(=O)[C@H](CO)NC(=O)[C@H](CO)NC(=O)[C@@H](NC(=O)[C@H](CC(=O)O)NC(=O)[C@H](CO)NC(=O)[C@@H](NC(=O)[C@H](Cc1ccccc1)NC(=O)[C@@H](NC(=O)CNC(=O)[C@H](CCC(=O)O)NC(=O)[C@H](C)NC(=O)CCc1cnc[nH]1)[C@@H](C)O)[C@@H](C)O)C(C)C)C(=O)N[C@@H](C)C(=O)N[C@@H](Cc1c[nH]c2ccccc12)C(=O)N[C@@H](CC(C)C)C(=O)N[C@H](C(=O)N[C@@H](CCCNC(=N)N)C(=O)NCC(=O)N[C@@H](CCCNC(=N)N)C(=O)N[C@@H](CCCCNC(=O)COCCOCCNC(=O)COCCOCCNC(=O)CC[C@H](NC(=O)CCCCCCCCCCCCCCCCC(=O)O)C(=O)O)C(=O)NCC(=O)NCC(=O)N[C@@H](CO)C(=O)N[C@@H](CCSC)C(=O)N[C@H](C(=O)N[C@@H](CCCCNc1c(NCCCCCN(O)C(=O)CCC(=O)NCCCCCN(O)C(=O)CCC(=O)NCCCCCN(O)C(C)=O)c(=O)c1=O)C(=O)O)C(C)C)C(C)C [zirconium-89 labelled],,ex vivo gamma counting,"male Sprague-Dawley rat, blood","intravenous, 1 nmol, 24 h, mean of 3 animals",,tissue uptake,0.191 %ID/g
CC(C)C[C@@H]1NC(=O)CNC(=O)[C@H](CC(N)=O)NC(=O)[C@H](CCCNC(=N)N)NC(=O)[C@H]([C@@H](C)O)NC(=O)[C@@H]2CSSC[C@@H]3NC(=O)[C@H]([C@@H](C)O)NC(=O)CNC(=O)[C@H](CCCCN)NC(=O)[C@H](C(C)C)NC(=O)[C@@H]4CSSC[C@H](NC(=O)[C@H]([C@@H](C)O)NC(=O)[C@H](CSSC[C@H](NC(=O)[C@H](C(C)C)NC(=O)[C@@H]5CCCN5C1=O)C(=O)NCC(=O)N[C@@H](CCC(=O)O)C(=O)N[C@@H]([C@@H](C)O)C(=O)N4)NC(=O)CNC(=O)[C@@H]1CCCN1C(=O)[C@H]([C@@H](C)O)NC(=O)[C@H](CC(N)=O)NC3=O)C(=O)N[C@@H](CO)C(=O)N[C@@H](Cc1c[nH]c3ccccc13)C(=O)N1CCC[C@H]1C(=O)N[C@@H](C(C)C)C(=O)N2,,HPLC,ammonium bicarbonate 0.1 M,"180 µM, 14 days, pH 9.0, 37 °C, deamidation stability",,remaining peptide,63.6 ± 4.9%
CO[C@H]1C[C@@H]2CC[C@@H](C)[C@@](O)(O2)C(=O)C(=O)N2CCCC[C@H]2C(=O)O[C@H]([C@H](C)C[C@@H]2CC[C@@H](OC(=O)NCCOCCOCCOCCOCCOCCOCCOCCOCCC(=O)N3CCc4cc(Cn5nc(-c6ccc7oc(N)nc7c6)c6c(N)ncnc65)ccc4C3)[C@H](OC)C2)C[C@@H](O)[C@H](C)/C=C(\C)[C@@H](O)[C@@H](OC)C(=O)[C@H](C)C[C@H](C)/C=C/C=C/C=C/1C,,,patients with advanced solid tumours,"intravenous, 12 mg weekly, any grade",,AE leading to dose interruption,58.3%
COc1ccc(-c2c(-c3ccc(C#N)c(F)c3)nc(N3CCC(N)CC3)n(C)c2=O)cc1F,,refers to: Dyspnea,human patients,"oral, 60 mg, dose expansion",,serious adverse event incidence,0%
CNC(=O)[C@@H](NC(=O)c1cc(OCC2(C)COC2)c(C2CC2)cn1)C(C)(C)C,,,"C57BL/6 mice, plasma","intravenous, dose not given",,dose-normalised AUC(0-inf),226 kg·ng·h/mL/mg
O[C@H]1CCCN[C@@H]1CCCn1cnc2c(Cl)c(Cl)ccc21,,,"healthy humans, plasma","oral, 150 mg twice daily",,CL/F at steady state,2450 mL/min
C[C@]1(O)C[C@@](N)(c2ccc(-c3nc4n(c3-c3ccccc3)COc3ccncc3-4)cc2)C1,,,"human, advanced or metastatic solid tumours","16 mg once daily, dose-response cohort",,patients with Pruritus TEAE,0%
O=S(=O)(Nc1ccccc1)c1ccc(NC(=S)Nc2ccccc2)cc1,,refers to: NE%,"male mouse, blood","oral, 20 mg/kg daily, 14 days",,blood cell fraction,15.2%
COc1cc2c(Oc3ccc4[nH]c(C)cc4c3F)ccnc2cc1OCC1(N)CC1,,,paediatric recurrent refractory sarcoma,12 mg,,Diarrhea incidence,63.6%
COc1cc(N)c(Cl)cc1C(=O)NC[C@@H]1CCN2CCC[C@@H]12,"Cholinesterase (BCHE, Homo sapiens, UniProt P06276)",inhibitor,,with Triton,,IC50,17.9 ± 1.21 µM
O=C(O)CCC(CP(=O)(O)O)C(=O)O (stereo not shown),,,rat plasma,"0.3 µg/mL, 4 h, room temperature, bench-top stability",,measured concentration,0.326 ± 0.009 µg/mL
CC[C@H](C)[C@H](NC(=O)[C@H](CCCNC(=N)N)NC(=O)[C@H](CC(C)C)NC(=O)[C@H](CC(C)C)NC(=O)[C@H](CC(C)C)NC(=O)[C@@H](NC(=O)[C@@H](N)CO)[C@@H](C)CC)C(=O)N[C@@H](CO)C(=O)N[C@@H](CC(C)C)C(=O)N[C@H](C(=O)N[C@@H](CCCCN)C(=O)O)[C@@H](C)O,,,mouse red blood cells,,,minimal haemolytic concentration,100 µM
O=C(O)CCCOc1ccc(F)cc1-c1cc(-c2ccccc2C(F)(F)F)n(-c2ccccc2)n1,,refers to: Neutrophils,"Crl:CD(SD) rats, female, blood","iv, 25 µg/kg, 14 days",,leukocyte differential,17.1 ± 4.9%
CC1(C)C(C=C(Cl)Cl)C1C(=O)OC(C#N)c1ccc(F)c(Oc2ccccc2)c1 (stereo not shown),,,pooled human liver cytosol,,,CLint,438 µL/min/mg
NC(=O)[C@H]1CCN(c2ncnc(N)c2F)C[C@@H]1N1CCC[C@@H](Nc2cc(Cl)cc(C(F)(F)F)c2)C1=O,,,B-cell malignancy patients,"oral, 82 mg twice daily, dose",,grade ≥3 hypocalcaemia,0%
C[C@H]1CN(c2n[nH]c3nc(N[C@H]4CC[C@H](NS(=O)(=O)CCC(F)(F)F)CC4)ncc23)CCO1,"Nuclear pore complex protein Nup160 (Homo sapiens, UniProt Q12769)",biochemical,,,,IC50,≥ 20 µM
OC(CCN1CCCCC1)(c1ccccc1)C1CCCCC1 (stereo not shown),Plasmodium falciparum,,D10,,,IC50,12.6 µM
COc1ccc(F)cc1C(=O)NCc1ccc(-c2nn([C@@H](C)C(F)(F)F)c(N)c2C(N)=O)cc1,,,"human, plasma","oral, 200 mg once daily, together with: intravenous midazolam",,tmax,3 h
CN[C@H]1CC[C@@H](c2ccc(Cl)c(Cl)c2)c2ccccc21,,,"CD-1 mouse, male, plasma","intraperitoneal, 0.3 mg/kg",,AUC(0-t),16.3 ng·h/mL

# For quick reference, copied from above:
Structure (SMILES),tested on,test,test system,setting,scale,quantity,result
Clc1cc(Cl)c(-c2c(Cl)cc(Cl)cc2Cl)c(Cl)c1,,,fresh water,"20 °C, SSP sampler, 100 µm",,log K(PDMS-water),6.58 ± 0.02
Clc1ccc(Cl)c(-c2cc(Cl)ccc2Cl)c1,,,"Sprague Dawley rat, spleen","intraperitoneal, 10 mg/kg",,relative organ weight,0.0029 g/g body weight
COc1c(OCCCN2CCOCC2)ccc2c1N=C(NC(=O)c1cnc(N)nc1)N1CCN=C21,,refers to: Vomiting,patients with advanced malignancies,"intravenous, dose not given, any grade, all cohorts, together with: gemcitabine",,patients with adverse event,50%
COc1cc2c(cc1C(F)(F)F)N(C(=O)Nc1cc(F)cc(-c3cccnc3)c1)CC2,Plasmodium falciparum,,Dd2,,,IC50,7.94 µM
